Measurements gathered from unrelated publications.
Each numbered part is a random draw from the data of one study; scales do not carry over between parts.

Sample 1 — technique: protein-binding microarray; molecule type: double-stranded DNA, one strand shown; medium: in vitro; concentration: 250 nM; setting: 60-bp whole probe; with: salmon DNA 0.4 mg/ml; relative to: random background probes; reading: higher = stronger binding
Target: Interferon regulatory factor 7, full length, phosphomimetic (IRF7, Homo sapiens, UniProt Q92985, residues 1-503, S101K/S471D/S472D/S475D/S476D/S477D/S483D/S484D/S487D)
Sequence of UniProt Q92985 (whole entry, unmodified, looked up): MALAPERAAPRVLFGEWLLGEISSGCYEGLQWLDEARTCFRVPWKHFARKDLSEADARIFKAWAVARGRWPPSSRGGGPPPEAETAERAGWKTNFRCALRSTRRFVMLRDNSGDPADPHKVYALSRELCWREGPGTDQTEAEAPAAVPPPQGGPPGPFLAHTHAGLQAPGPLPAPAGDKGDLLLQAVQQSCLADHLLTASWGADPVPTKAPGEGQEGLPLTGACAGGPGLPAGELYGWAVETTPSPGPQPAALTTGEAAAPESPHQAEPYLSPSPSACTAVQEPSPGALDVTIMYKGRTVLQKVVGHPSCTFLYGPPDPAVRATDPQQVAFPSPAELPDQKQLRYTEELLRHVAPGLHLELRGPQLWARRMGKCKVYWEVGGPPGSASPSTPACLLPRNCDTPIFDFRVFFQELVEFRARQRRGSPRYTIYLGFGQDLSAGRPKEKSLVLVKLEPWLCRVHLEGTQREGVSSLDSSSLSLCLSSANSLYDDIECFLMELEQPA
`GCCTAGCACTCATTTTAATTTTTAACACTGTGCTAGGTCTTGATTCGCTTGACGCTGCTG` has a log fluorescence of 1.83 z-score.
The log fluorescence of `GCCTAGCACATTTACATGCATATAGTATAGTGCTAGGTCTTGATTCGCTTGACGCTGCTG` is reported as 0.559 z-score.
For `GCCTAGCACTCAATTTTCTCTGTTCTACTGTGCTAGGTCTTGATTCGCTTGACGCTGCTG`, the log fluorescence was 1.24 z-score.

Sample 2 — technique: aptamer microarray, sandwich; molecule type: DNA with 2'F-ANA; medium: in vitro; concentration: 200 nM; with: Cy3 exosite-II aptamer, 400 nM; reading: higher = stronger binding
Target: Prothrombin, mature alpha-thrombin (F2, Homo sapiens, UniProt P00734)
Setting: whole 15-mer aptamer, many near background
`GGTTGGTGTGGTTGG (2'F-ANA at 1 2 4 5 6 8 10 11 12 13 14 15)` — result for “mean fluorescence intensity”: 49.2 a.u.
`GGTTGGTGTGGTTGG (2'F-ANA at 1 2 4 6 7 13 14)`: “mean fluorescence intensity” 48.3 a.u.
For `GGTTGGTGTGGTTGG (2'F-ANA at 3 5 8 9 10 11 13 14)`, “mean fluorescence intensity” read 54.5 a.u.
`GGTTGGTGTGGTTGG (2'F-ANA at 2 4 7 8 11 12 13 15)` — result for “mean fluorescence intensity”: 371 a.u.

Sample 3 — technique: protein binding microarray; molecule type: double-stranded DNA, one strand shown; medium: in vitro; concentration: not given; relative to: not given; reading: higher = stronger binding
Target: Histone acetyltransferase KAT6A, winged helix 1, GST fusion (KAT6A, Homo sapiens, UniProt Q92794, residues 1-85)
Setting: 8-mer, flanks averaged, mean of 2 arrays, mostly near background
Target sequence (chain): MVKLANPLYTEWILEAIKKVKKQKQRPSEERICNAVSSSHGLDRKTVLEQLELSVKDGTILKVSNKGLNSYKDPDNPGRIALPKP
`TTAATGAA` has an E-score of -0.117.
`ACATACTA` gave an E-score of -0.0903.
`ATGCCCAC` gave an E-score of -0.181.
`TCGTCAGA` gave an E-score of -0.172.

Further values, each from its own experiment
For `PhoQ, residues 284 288 289 292 302 303 QWGLFV`, the fold induction was 14.7 (PhoP, residues 12 14 15 18 19 LYFRQ (Escherichia coli, UniProt P23836); Sort-seq, measured: YFP reporter; E. coli; PhoQ-PhoP variant library, with: 10 µM Mg2+; relative to: high Mg2+ state, higher = stronger signaling).

Repeated from above (sample 1):
The log fluorescence of `GCCTAGCACATTTACATGCATATAGTATAGTGCTAGGTCTTGATTCGCTTGACGCTGCTG` is reported as 0.559 z-score.
